Experimental data pooled from the literature.
Protocols differ between the studies behind these lines. ± gives the spread as reported.

SMILES = CN1CCC[C@@H]1C(=O)N[C@@H](Cc1ccc(-c2ccccc2)cc1)B(O)O; system = Sprague-Dawley rat, male, plasma; conditions = intravenous, 1 mg/kg; Cmax = 2670 nM
SMILES = Cc1c(-c2ccc(N3CCc4cccc(C(=O)Nc5nc6ccccc6s5)c4C3)nc2C(=O)O)cnn1CC12CC3CC(CC(C3)C1)C2; system = anesthetized male Sprague-Dawley rats, plasma; conditions = intravenous infusion, 10 mg/kg, 30 min infusion; Cmax = 57200 ± 6500 ng/mL
SMILES = CCCC[C@H](OC(C)=O)c1ccccc1C(=O)O; system = Sprague-Dawley rats, both sexes, whole blood; conditions = intravenous, 1.25 mg/kg single dose; Cmax = 3780 ± 931 ng/mL
SMILES = CC1(C)C(NC(=O)C(=NOC2(C(=O)O)CC2)c2csc(N)n2)C(=O)N1OS(=O)(=O)O (stereo not shown); system = Sprague-Dawley rat, plasma; conditions = intravenous, 10 mg/kg; Cmax = 51500 ± 19700 ng/mL
SMILES = CC[C@H](C)[C@H](NC(=O)[C@H](Cc1ccc(O)cc1)NC(=O)[C@@H](NC(=O)[C@H](CCCNC(=N)N)NC(=O)[C@@H](N)CC(=O)O)C(C)C)C(=O)N[C@@H](Cc1c[nH]cn1)C(=O)N1CCC[C@H]1C(=O)O; assay = LC-MS/MS; system = Sprague-Dawley rats, plasma; conditions = subcutaneous, 10 mg/kg/day, day 27; Cmax = 257 ng/mL
SMILES = C=C(NC(=O)c1csc(-c2nc3c(cc2O)-c2nc(cs2)C(=O)NC(C(C)O)C(=O)NC(=C(C)OC)c2nc(cs2)C(=O)NC2c4nc(cs4)C(=O)NC(COC(=O)c4c5c6c(cccc6n4O)COC(=O)C(OC4CC(C)(O)C(N(C)C)C(C)O4)C2OC5)c2nc-3cs2)n1)C(N)=O (stereo not shown); system = Sprague-Dawley rat, both sexes, plasma; conditions = intravenous infusion, 6 mg/kg, multiple doses, day 1; Cmax = 4150 ± 1090 ng/mL
SMILES = C=CC[C@@H]1/C=C(\C)C[C@H](C)C[C@H](OC)[C@H]2O[C@@](O)(C(=O)C(=O)N3CCCC[C@H]3C(=O)O[C@H](/C(C)=C/[C@@H]3CC[C@@H](O)[C@H](OC)C3)[C@H](C)[C@@H](O)CC1=O)[C@H](C)C[C@@H]2OC; assay = LC-MS/MS; system = rat, whole blood; conditions = intraperitoneal, 0.5 mg/kg single dose; Cmax = 136 ng/mL
SMILES = O=C(NS(=O)(=O)c1cccs1)c1cc2ccccc2n1Cc1ccc(Br)c2ccccc12; system = Sprague-Dawley rat, male, plasma; conditions = oral, 20 mg/kg; Cmax = 3550 ng/mL
SMILES = COc1ccc([C@@H]2CC(=O)c3c(O)cc(O[C@@H]4O[C@H](CO)[C@@H](O)[C@H](O)[C@H]4O[C@@H]4O[C@@H](C)[C@H](O)[C@@H](O)[C@H]4O)cc3O2)cc1O; system = Sprague-Dawley rat, male, lean, plasma; conditions = oral, 100 mg/kg; Cmax = 5.09 ± 4.21 ng/mL
SMILES = OC1(C(F)(F)F)CCN(c2nc(Nc3ccnc(C(F)(F)F)c3)nc(-c3cccc(C(F)(F)F)n3)n2)C1 (stereo not shown); system = Sprague-Dawley rat, both sexes, plasma; conditions = oral gavage, 5 mg/kg; Cmax = 217 ± 34.5 ng/mL
SMILES = O=C(O)/C=C\c1cc2ccoc2cc1O[C@@H]1O[C@H](CO)[C@@H](O)[C@H](O)[C@H]1O; system = rat, plasma; conditions = oral, 500 mg/kg Eu + 217 mg/kg Pc extract, dosed as combined Eu and Pc extracts; Cmax = 229 ± 110 ng/mL
SMILES = O=C(Nc1cc(-c2ccnc3[nH]ccc23)c(Cl)cn1)[C@H]1CCC[C@@H](NC(=O)C(F)(F)F)C1; system = rat, plasma; conditions = oral, dose not given; Cmax = 2610 nM
SMILES = C/C(N)=N/C(=N\S(=O)(=O)c1ccc(C(F)(F)F)cc1)N1C[C@H](c2ccccc2)C(c2ccc(Cl)cc2)=N1; system = Sprague-Dawley rat, male, plasma; conditions = oral, 3 mg/kg; Cmax = 321 ng/mL

A few entries again:
SMILES = CN1CCC[C@@H]1C(=O)N[C@@H](Cc1ccc(-c2ccccc2)cc1)B(O)O; system = Sprague-Dawley rat, male, plasma; conditions = intravenous, 1 mg/kg; Cmax = 2670 nM
